Measurements of several laboratories.
AKR1C3: Aldo-keto reductase family 1 member C3 (AKR1C3, Homo sapiens, UniProt P42330)
Sequence of UniProt P42330 (whole entry, looked up): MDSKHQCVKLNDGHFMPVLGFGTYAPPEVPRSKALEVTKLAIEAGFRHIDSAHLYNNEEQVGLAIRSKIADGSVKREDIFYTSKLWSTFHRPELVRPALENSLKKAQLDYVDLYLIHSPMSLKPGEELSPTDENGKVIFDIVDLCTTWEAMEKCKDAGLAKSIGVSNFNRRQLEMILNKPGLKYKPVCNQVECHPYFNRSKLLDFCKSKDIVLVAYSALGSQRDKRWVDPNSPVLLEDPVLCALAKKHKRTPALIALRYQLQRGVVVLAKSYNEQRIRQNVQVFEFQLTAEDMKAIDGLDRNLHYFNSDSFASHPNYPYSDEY
BCHE: Cholinesterase (BCHE, Equus caballus, UniProt P81908)
Sequence of UniProt P81908 (whole entry, looked up): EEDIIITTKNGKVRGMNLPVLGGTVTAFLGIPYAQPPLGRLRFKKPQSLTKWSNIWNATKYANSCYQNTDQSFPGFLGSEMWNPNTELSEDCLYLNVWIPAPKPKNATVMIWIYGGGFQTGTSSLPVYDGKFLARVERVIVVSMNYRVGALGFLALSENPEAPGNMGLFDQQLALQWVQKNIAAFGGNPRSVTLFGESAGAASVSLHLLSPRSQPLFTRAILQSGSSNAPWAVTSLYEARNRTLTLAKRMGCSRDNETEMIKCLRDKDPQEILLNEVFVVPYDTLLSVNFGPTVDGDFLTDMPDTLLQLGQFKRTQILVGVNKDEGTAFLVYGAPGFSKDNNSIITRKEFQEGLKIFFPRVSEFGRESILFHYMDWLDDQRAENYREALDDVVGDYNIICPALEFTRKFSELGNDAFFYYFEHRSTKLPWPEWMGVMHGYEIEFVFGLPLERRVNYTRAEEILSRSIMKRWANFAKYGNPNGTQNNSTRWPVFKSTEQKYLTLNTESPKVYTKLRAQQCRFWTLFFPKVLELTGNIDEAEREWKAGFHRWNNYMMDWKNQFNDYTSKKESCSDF
Sequence of UniProt Q00535 (whole entry, looked up): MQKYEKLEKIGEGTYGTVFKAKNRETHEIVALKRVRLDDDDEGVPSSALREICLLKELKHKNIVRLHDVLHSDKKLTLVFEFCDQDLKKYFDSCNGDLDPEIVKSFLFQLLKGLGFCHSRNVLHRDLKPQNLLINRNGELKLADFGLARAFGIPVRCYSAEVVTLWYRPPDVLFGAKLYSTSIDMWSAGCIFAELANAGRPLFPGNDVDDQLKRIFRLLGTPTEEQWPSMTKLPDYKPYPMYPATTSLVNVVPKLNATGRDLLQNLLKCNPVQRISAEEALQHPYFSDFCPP
Sequence of UniProt Q9H4B4 (whole entry, looked up): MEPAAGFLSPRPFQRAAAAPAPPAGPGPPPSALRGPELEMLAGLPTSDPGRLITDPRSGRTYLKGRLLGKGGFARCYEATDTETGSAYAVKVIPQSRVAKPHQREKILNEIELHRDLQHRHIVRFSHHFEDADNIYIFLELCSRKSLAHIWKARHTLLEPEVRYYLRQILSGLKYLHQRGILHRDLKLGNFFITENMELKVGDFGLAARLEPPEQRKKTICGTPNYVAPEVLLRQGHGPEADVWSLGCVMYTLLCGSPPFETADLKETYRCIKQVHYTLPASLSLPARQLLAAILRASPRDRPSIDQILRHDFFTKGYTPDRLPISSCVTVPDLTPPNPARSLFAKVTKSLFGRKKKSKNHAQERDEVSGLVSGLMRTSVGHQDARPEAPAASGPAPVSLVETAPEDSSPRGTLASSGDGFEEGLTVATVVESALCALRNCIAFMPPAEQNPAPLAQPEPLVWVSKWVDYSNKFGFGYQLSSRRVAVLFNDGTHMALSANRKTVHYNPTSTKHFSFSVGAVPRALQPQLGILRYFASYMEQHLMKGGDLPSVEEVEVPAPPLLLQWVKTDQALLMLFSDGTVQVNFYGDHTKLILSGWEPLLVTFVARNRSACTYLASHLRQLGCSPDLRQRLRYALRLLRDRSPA
Sequence of UniProt P07711 (whole entry, looked up): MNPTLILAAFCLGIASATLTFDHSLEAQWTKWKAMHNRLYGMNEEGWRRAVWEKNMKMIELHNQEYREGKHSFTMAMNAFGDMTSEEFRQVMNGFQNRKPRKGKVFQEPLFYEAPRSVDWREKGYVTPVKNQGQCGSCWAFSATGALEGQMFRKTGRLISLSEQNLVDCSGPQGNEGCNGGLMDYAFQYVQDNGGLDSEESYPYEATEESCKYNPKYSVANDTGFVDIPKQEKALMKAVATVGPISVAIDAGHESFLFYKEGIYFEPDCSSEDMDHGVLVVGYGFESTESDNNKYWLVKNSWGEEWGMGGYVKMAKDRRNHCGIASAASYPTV
Sequence of UniProt Q2HRB6 (whole entry, looked up): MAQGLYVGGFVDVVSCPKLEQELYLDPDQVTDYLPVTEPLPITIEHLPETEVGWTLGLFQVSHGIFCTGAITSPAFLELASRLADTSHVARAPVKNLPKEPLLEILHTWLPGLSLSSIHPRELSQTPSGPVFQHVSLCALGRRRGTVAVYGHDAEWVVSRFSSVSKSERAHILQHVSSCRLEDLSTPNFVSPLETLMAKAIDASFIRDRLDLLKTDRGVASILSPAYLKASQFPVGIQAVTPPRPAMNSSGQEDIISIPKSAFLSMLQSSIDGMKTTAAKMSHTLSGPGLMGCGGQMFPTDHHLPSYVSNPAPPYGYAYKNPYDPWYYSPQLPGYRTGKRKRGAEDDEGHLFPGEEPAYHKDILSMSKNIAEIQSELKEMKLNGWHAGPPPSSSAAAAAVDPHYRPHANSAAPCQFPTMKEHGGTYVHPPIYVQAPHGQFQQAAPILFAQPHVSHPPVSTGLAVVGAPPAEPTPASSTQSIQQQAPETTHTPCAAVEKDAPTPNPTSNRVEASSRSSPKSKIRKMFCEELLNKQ
Sequence of UniProt P09958 (whole entry, looked up): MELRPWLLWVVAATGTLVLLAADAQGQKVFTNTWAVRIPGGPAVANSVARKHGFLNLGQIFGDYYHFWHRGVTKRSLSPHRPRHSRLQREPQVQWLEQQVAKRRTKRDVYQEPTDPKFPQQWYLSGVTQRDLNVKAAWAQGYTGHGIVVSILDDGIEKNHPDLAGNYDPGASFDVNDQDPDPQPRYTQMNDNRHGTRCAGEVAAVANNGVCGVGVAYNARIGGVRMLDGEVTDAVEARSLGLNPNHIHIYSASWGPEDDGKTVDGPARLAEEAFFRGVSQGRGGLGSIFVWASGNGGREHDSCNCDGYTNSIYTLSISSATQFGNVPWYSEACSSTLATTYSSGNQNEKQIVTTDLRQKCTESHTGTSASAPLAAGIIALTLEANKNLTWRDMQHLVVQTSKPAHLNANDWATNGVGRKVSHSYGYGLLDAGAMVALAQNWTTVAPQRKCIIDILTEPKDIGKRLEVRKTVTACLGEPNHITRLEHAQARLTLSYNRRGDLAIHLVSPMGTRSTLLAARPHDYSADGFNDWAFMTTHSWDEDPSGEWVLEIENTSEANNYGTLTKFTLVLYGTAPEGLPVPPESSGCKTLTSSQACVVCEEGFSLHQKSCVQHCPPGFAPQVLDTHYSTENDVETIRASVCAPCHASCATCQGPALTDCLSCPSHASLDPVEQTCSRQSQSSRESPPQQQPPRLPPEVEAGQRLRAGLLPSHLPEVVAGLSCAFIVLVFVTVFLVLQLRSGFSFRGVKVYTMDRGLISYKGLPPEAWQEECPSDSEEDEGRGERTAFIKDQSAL

CC(C)C[C@H](N)C(=O)CCl — inhibition (cathepsin B (Capra hircus, UniProt A0A452G2V1); goat liver; 10 µM, pH 6.0, with: BANA): ~9.5%
C[C@]12CC[C@@H]3c4ccc(O)c(Cl)c4CC[C@H]3[C@@H]1CCC2=O — inhibition (AKR1C3; enzyme activity, inhibitor, absorbance; 100 µM, pH 9): 91.7%
O=C(Oc1cncc(Cl)c1)c1cccc2[nH]ccc12 — inhibition (Procathepsin L (CTSL, Homo sapiens, UniProt P07711); enzyme activity, inhibitor; concentration not given, with: Z-Phe-Arg-pNA): no inhibition
O=C(O)c1ccc([PH]([Au][Cl])(c2ccccc2)c2ccccc2)cc1 — inhibition (thioredoxin reductase; 100 µM): 67.1%
NC(=O)c1ccc(NC(=O)c2cccc(CC3CCCCC3)n2)c(Cc2ccccc2)c1 — inhibition (Capsid scaffolding protein, protease domain (Human herpesvirus 8 type P, UniProt Q2HRB6); enzyme activity, inhibitor; concentration not given, pH 8): inactive
CC[C@H](CO)Nc1nc(NCc2ccc(C)s2)n2ncc(C(C)C)c2n1 — inhibition (CDK5 (Homo sapiens, UniProt Q00535); enzyme activity; 2 µM): ~40%
O=C(O)c1ccccc1-c1c2ccc(=O)c([As]3SCCS3)c-2oc2c([As]3SCCS3)c(O)ccc12 — inhibition (PTPN11 (Homo sapiens, UniProt Q06124, C333P); phosphatase activity; concentration not given, full-length, C333P mutant, with: DiFMUP): inhibited
Fc1ccc(Nc2c3c(nc4ccccc24)CCCC3)cc1 — inhibition (BCHE; enzyme activity, inhibitor; 100 µM): -108%
CC(=O)NC(Cc1ccc(Br)c(Cl)c1)C(=O)N[C@@H](C)C(=O)N1CCC[C@H]1C(=O)N1CCC[C@H]1C(=O)N[C@@H](CCC(=O)O)C(=O)N[C@@H](Cc1c[nH]cn1)C(=O)N[C@@H](CO)C(=O)N[C@H](C(=O)N[C@@H](C)C(N)=O)[C@@H](C)OP(=O)(O)O (stereo partly shown) — inhibition (PLK3 (Homo sapiens, UniProt Q9H4B4); enzyme activity, inhibitor; 10 µM): 2.27%
Cc1ccc2c(Nc3ccc4ccccc4n3)c3c(nc2c1)CCCC3 — inhibition (BCHE; enzyme activity, inhibitor; 50 µM): -88.5%
CC(C)C[C@@H]1NC(=O)[C@H](C(C)C)NC(=O)[C@H](C)NC(=O)[C@H](Cc2ccc(O)cc2)NC(=O)[C@H](CCC(N)=O)NC(=O)[C@H](CC(C)C)NC(=O)[C@@H](Cc2ccc(O)cc2)NC(=O)CSC[C@@H](C(N)=O)NC(=O)[C@H](CCC(=O)O)NC(=O)[C@H](CCCNC(=N)N)NC(=O)[C@H](CCCNC(=N)N)NC(=O)[C@H](CCCCN)NC(=O)[C@H](Cc2c[nH]cn2)NC(=O)[C@H](CCCNC(=N)N)NC1=O — inhibition (Furin (FURIN, Homo sapiens, UniProt P09958); enzyme activity; 10 µM): inactive
C[C@]12CC[C@@H]3c4cc(Cl)c(O)c(Cl)c4CC[C@H]3[C@@H]1CCC2=O — inhibition (AKR1C3; enzyme activity, inhibitor, absorbance; 10 µM, pH 9): 21.9%
Cc1ccnc(Nc2c3c(nc4cc(C)ccc24)CCCC3)c1 — inhibition (BCHE; enzyme activity, inhibitor; 100 µM): -26.6%
